Experimental data of several laboratories.
Each line is one published result; not all experiments were run side by side. ± marks the error that the study gave.

CCCC[C@H](NC(=O)[C@H](Cc1cccs1)NC(=O)[C@H](Cc1c[nH]cn1)NC(=O)CCNC(=O)[C@@H](NC(=O)[C@H](C)NC(=O)[C@H](Cc1c[nH]c2ccccc12)NC(=O)[C@H](CCC(N)=O)NC(=O)[C@H](Cc1cccs1)NC(=O)CN1CCC(NC(=O)CN(CCN(CCN(CC(=O)O)CC(=O)O)CC(=O)O)CC(=O)O)CC1)C(C)C)C(N)=O [indium-111 labelled]  tissue uptake (male Swiss nu/nu mice, PC-3 tumour, kidney; intravenous, 10 pmol, 4 h): 1.2 ± 0.4 %ID/g
N=C(N)NCCC[C@@H]1NC(=O)[C@H](CCCCNC(=O)CCOCCOCCOCCOCCNC(=O)CC[C@H](NC(=O)CCOCCOCCOCCOCCNC(=O)c2ccc(NN)nc2)C(=O)NCCOCCOCCOCCOCCC(=O)NCCCC[C@@H]2NC(=O)[C@@H](Cc3ccccc3)NC(=O)[C@H](CC(=O)O)NC(=O)CNC(=O)[C@H](CCCNC(=N)N)NC2=O)NC(=O)[C@@H](Cc2ccccc2)NC(=O)[C@H](CC(=O)O)NC(=O)CNC1=O [technetium-99m labelled]  tissue uptake (female athymic nude mice, U-87 MG glioma xenograft, blood; intravenous, 2.5 µCi, 60 min): 0.27 ± 0.08 %ID/g
N=C(N)NCCC[C@H](NC(=O)[C@H](CCCCN)NC(=O)[C@H](CCC(N)=O)NC(=O)CCOCCOCCOCCNC(=O)CN1CCN(CC(=O)O)CCN(CC(=O)O)CCN(CC(=O)O)CC1)C(=O)N[C@@H](CCCCN)C(=O)N[C@@H](CCCNC(=N)N)C(=O)N[C@@H](CCCCN)C(=O)N[C@@H](CCCCN)C(=O)N[C@@H](CO)C(=O)N[C@@H](CCCNC(=N)N)C(=O)N[C@@H](Cc1ccc(O)cc1)C(=O)N[C@@H](CCCCN)C(=O)N[C@@H](CO)C(=O)O [copper-64 labelled]  tissue uptake (C57BL/6 mice, B16-F10 tumour, thymus; intravenous, 60 min): 0.51 ± 0.1 %ID/g
N=C(N)NCCC[C@@H]1NC(=O)[C@H](CCCCNC(=O)CCOCCOCCOCCOCCNC(=O)CC[C@H](NC(=O)CCOCCOCCOCCOCCNC(=O)CC[C@H](NC(=O)CN2CCN(CC(=O)O)CCN(CC(=O)O)CCN(CC(=O)O)CC2)C(=O)NCCOCCOCCOCCOCCC(=O)N[C@@H](CCC(=O)NCCOCCOCCOCCOCCC(=O)NCCCC[C@@H]2NC(=O)[C@@H](Cc3ccccc3)NC(=O)[C@H](CC(=O)O)NC(=O)CNC(=O)[C@H](CCCNC(=N)N)NC2=O)C(=O)NCCOCCOCCOCCOCCC(=O)NCCCC[C@@H]2NC(=O)[C@@H](Cc3ccccc3)NC(=O)[C@H](CC(=O)O)NC(=O)CNC(=O)[C@H](CCCNC(=N)N)NC2=O)C(=O)NCCOCCOCCOCCOCCC(=O)NCCCC[C@@H]2NC(=O)[C@@H](Cc3ccccc3)NC(=O)[C@H](CC(=O)O)NC(=O)CNC(=O)[C@H](CCCNC(=N)N)NC2=O)NC(=O)[C@@H](Cc2ccccc2)NC(=O)[C@H](CC(=O)O)NC(=O)CNC1=O [indium-111 labelled]  tissue uptake (female athymic nude mice, muscle; intravenous, 3 µCi, 0.5 h, U-87 MG glioma xenograft): 1.79 ± 0.11 %ID/g
N=C(N)NCCC[C@@H]1NC(=O)[C@H](CC(=O)NC23CNCCNCC(N)(CNCCNC2)CNCCNC3)NC(=O)[C@@H](Cc2ccccc2)NC(=O)[C@H](CC(=O)O)NC(=O)CNC1=O [copper-64 labelled]  tissue uptake (male nude tumour-bearing mice, kidney; iv, 10 µCi, 24 h): 2.36 ± 0.35 %ID/g
N=C(N)NCCC[C@@H]1NC(=O)[C@H](CCCCNC(=O)CNC(=O)CNC(=O)CNC(=O)CC[C@H](NC(=O)CCOCCOCCOCCOCCNC(=O)CC[C@H](NC(=O)CN2CCN(CC(=O)O)CCN(CC(=O)O)CCN(CC(=O)O)CC2)C(=O)NCCOCCOCCOCCOCCC(=O)N[C@@H](CCC(=O)NCC(=O)NCC(=O)NCC(=O)NCCCC[C@@H]2NC(=O)[C@@H](Cc3ccccc3)NC(=O)[C@H](CC(=O)O)NC(=O)CNC(=O)[C@H](CCCNC(=N)N)NC2=O)C(=O)NCC(=O)NCC(=O)NCC(=O)NCCCC[C@@H]2NC(=O)[C@@H](Cc3ccccc3)NC(=O)[C@H](CC(=O)O)NC(=O)CNC(=O)[C@H](CCCNC(=N)N)NC2=O)C(=O)NCC(=O)NCC(=O)NCC(=O)NCCCC[C@@H]2NC(=O)[C@@H](Cc3ccccc3)NC(=O)[C@H](CC(=O)O)NC(=O)CNC(=O)[C@H](CCCNC(=N)N)NC2=O)NC(=O)[C@@H](Cc2ccccc2)NC(=O)[C@H](CC(=O)O)NC(=O)CNC1=O [indium-111 labelled]  tissue uptake (female athymic nude mice, blood; intravenous, 3 µCi, 0.5 h, U-87 MG glioma xenograft): 0.84 ± 0.32 %ID/g
N=C(N)NCCC[C@@H]1NC(=O)[C@H](CCCCNC(=O)CC[C@H](NC(=O)[C@H](CCCCNC(=O)c2ccc(NN)nc2)NC(=O)c2ccc(NN)nc2)C(=O)NCCCC[C@@H]2NC(=O)[C@@H](Cc3ccccc3)NC(=O)[C@H](CC(=O)O)NC(=O)CNC(=O)[C@H](CCCNC(=N)N)NC2=O)NC(=O)[C@@H](Cc2ccccc2)NC(=O)[C@H](CC(=O)O)NC(=O)CNC1=O [technetium-99m labelled]  tissue uptake (female athymic nude mice, muscle; intravenous, 0.1 MBq, 1 h, U-87 MG glioma xenograft): 0.92 ± 0.11 %ID/g
N=C(N)NCCC[C@@H]1NC(=O)[C@H](CCCCNC(=O)CCOCCOCCOCCOCCNC(=O)CN2CCN(CC(=O)O)CCN(CC(=O)O)CCN(CC(=O)O)CC2)NC(=O)[C@@H](Cc2ccccc2)NC(=O)[C@H](CC(=O)O)NC(=O)CNC1=O [indium-111 labelled]  tissue uptake (female athymic nude mice, spleen; intravenous, 3 µCi, 1 h, U-87 MG glioma xenograft): 0.83 ± 0.1 %ID/g
N=C(N)NCCC[C@@H]1NC(=O)[C@H](CCCCNC(=O)CNC(=O)CNC(=O)CNC(=O)CC[C@H](NC(=O)CNC(=O)CNC(=O)CNC(=O)[C@H](CCCCNC(=O)c2ccc(NN)nc2)NC(=O)c2ccc(NN)nc2)C(=O)NCC(=O)NCC(=O)NCC(=O)NCCCC[C@@H]2NC(=O)[C@@H](Cc3ccccc3)NC(=O)[C@H](CC(=O)O)NC(=O)CNC(=O)[C@H](CCCNC(=N)N)NC2=O)NC(=O)[C@@H](Cc2ccccc2)NC(=O)[C@H](CC(=O)O)NC(=O)CNC1=O [technetium-99m labelled]  tissue uptake (female athymic nude mice, blood; intravenous, 0.1 MBq, 1 h, U-87 MG glioma xenograft): 0.73 ± 0.15 %ID/g
CSCC[C@H](NC(=O)[C@H](CC(C)C)NC(=O)[C@H](Cc1c[nH]cn1)NC(=O)CNC(=O)[C@@H](NC(=O)[C@H](C)NC(=O)[C@H](Cc1c[nH]c2ccccc12)NC(=O)[C@H](CCC(N)=O)NC(=O)CNC(=O)[C@H](CO)NC(=O)CNC(=O)CCCCCCCNC(=O)CCC(=O)Nc1ccc(CNC23CNCCNCC(N)(CNCCNC2)CNCCNC3)cc1)C(C)C)C(N)=O [copper-64 labelled]  tissue uptake (female SCID mice, PC-3 xenograft, bone; intravenous, 0.6 MBq, 24 h): 0.498 ± 0.04 %ID/g
CC(C)C[C@H](NC(=O)[C@H](Cc1ccc(O)cc1)NC(=O)[C@@H](CCCNC(=N)N)NC(=O)[C@@H](CO)NC(=O)[C@H](Cc1ccccc1)NC(=O)[C@H](CC1CCCCC1)NC(=O)[C@H](CC(=O)O)NC(=O)CCC(C(=O)O)N1CCCN2CCN(CCCN(CC(=O)O)CC2)CC1)C(=O)N[C@@H](Cc1c[nH]c2ccccc12)C(=O)N[C@@H](CO)C(=O)O (stereo partly shown) [copper-64 labelled]  tissue uptake (female NMRI nude mice, stomach; 1 h p.i.): 1.3 ± 0.8 %ID/g
N=C(N)NCCC[C@@H]1NC(=O)[C@H](CCCCNC(=O)CC[C@H](NC(=O)CCOCCOCCOCCOCCNC(=O)CC[C@H](NC(=O)CN2CCN(CC(=O)O)CCN(CC(=O)O)CCN(CC(=O)O)CC2)C(=O)NCCOCCOCCOCCOCCC(=O)N[C@@H](CCC(=O)NCCCC[C@@H]2NC(=O)[C@@H](Cc3ccccc3)NC(=O)[C@H](CC(=O)O)NC(=O)CNC(=O)[C@H](CCCNC(=N)N)NC2=O)C(=O)NCCCC[C@@H]2NC(=O)[C@@H](Cc3ccccc3)NC(=O)[C@H](CC(=O)O)NC(=O)CNC(=O)[C@H](CCCNC(=N)N)NC2=O)C(=O)NCCCC[C@@H]2NC(=O)[C@@H](Cc3ccccc3)NC(=O)[C@H](CC(=O)O)NC(=O)CNC(=O)[C@H](CCCNC(=N)N)NC2=O)NC(=O)[C@@H](Cc2ccccc2)NC(=O)[C@H](CC(=O)O)NC(=O)CNC1=O [indium-111 labelled]  tissue uptake (female athymic nude mice, blood; intravenous, 3 µCi, 1 h, U-87 MG glioma xenograft): 0.31 ± 0.16 %ID/g
CSCC[C@H](NC(=O)[C@H](CC(=O)O)NC(=O)[C@H](CO)NC(=O)[C@H](Cc1c[nH]cn1)NC(=O)[C@H](Cc1c[nH]c2ccccc12)NC(=O)CN1CCN(CC(=O)O)CCN(CC(=O)O)CCN(CC(=O)O)CC1)C(=O)N[C@@H](CCC(=O)O)C(=O)N[C@@H](Cc1c[nH]c2ccccc12)C(=O)N[C@@H](Cc1c[nH]c2ccccc12)C(=O)N[C@@H](Cc1ccc(O)cc1)C(=O)N[C@@H](CC(C)C)C(=O)N[C@@H](CC(C)C)C(=O)NCC(=O)N[C@@H](CCCCNC(=O)COCCOCCNC(=O)CCN1C(=O)C=CC1=O)C(=O)O [copper-64 labelled]  tissue uptake (gamma counting; nude mice bearing BGC-823 tumours, BGC-823 tumour; intravenous, 0.74 MBq (0.02 nmol), 4 h): 1.27 %ID/g

Excerpt of the above:
CSCC[C@H](NC(=O)[C@H](CC(C)C)NC(=O)[C@H](Cc1c[nH]cn1)NC(=O)CNC(=O)[C@@H](NC(=O)[C@H](C)NC(=O)[C@H](Cc1c[nH]c2ccccc12)NC(=O)[C@H](CCC(N)=O)NC(=O)CNC(=O)[C@H](CO)NC(=O)CNC(=O)CCCCCCCNC(=O)CCC(=O)Nc1ccc(CNC23CNCCNCC(N)(CNCCNC2)CNCCNC3)cc1)C(C)C)C(N)=O [copper-64 labelled]  tissue uptake (female SCID mice, PC-3 xenograft, bone; intravenous, 0.6 MBq, 24 h): 0.498 ± 0.04 %ID/g
N=C(N)NCCC[C@@H]1NC(=O)[C@H](CCCCNC(=O)CNC(=O)CNC(=O)CNC(=O)CC[C@H](NC(=O)CNC(=O)CNC(=O)CNC(=O)[C@H](CCCCNC(=O)c2ccc(NN)nc2)NC(=O)c2ccc(NN)nc2)C(=O)NCC(=O)NCC(=O)NCC(=O)NCCCC[C@@H]2NC(=O)[C@@H](Cc3ccccc3)NC(=O)[C@H](CC(=O)O)NC(=O)CNC(=O)[C@H](CCCNC(=N)N)NC2=O)NC(=O)[C@@H](Cc2ccccc2)NC(=O)[C@H](CC(=O)O)NC(=O)CNC1=O [technetium-99m labelled]  tissue uptake (female athymic nude mice, blood; intravenous, 0.1 MBq, 1 h, U-87 MG glioma xenograft): 0.73 ± 0.15 %ID/g
